Results collected from several papers.
Every numbered part comes from another study and shows a few of its results, in no order.

Series 1
Target: Hepatocyte nuclear factor 3-alpha (Foxa1, Mus musculus, UniProt P35582, residues 1-468, full length assumed)
Method: EMSA with sequencing
Form: double-stranded DNA, one strand shown
Medium: in vitro
Concentration: 10 and 20 nM
Notes: whole designed probe, mean of two concentrations, ends assumed
Reference: negative control set to 0
Direction: higher = stronger binding
Endpoint: normalised bound fraction
Shared flanks, not repeated: GTGAGCGGTGCCCATTGATGGGGAAC … TTTCACTGGGATCGTGGGGAC
Construct (chain): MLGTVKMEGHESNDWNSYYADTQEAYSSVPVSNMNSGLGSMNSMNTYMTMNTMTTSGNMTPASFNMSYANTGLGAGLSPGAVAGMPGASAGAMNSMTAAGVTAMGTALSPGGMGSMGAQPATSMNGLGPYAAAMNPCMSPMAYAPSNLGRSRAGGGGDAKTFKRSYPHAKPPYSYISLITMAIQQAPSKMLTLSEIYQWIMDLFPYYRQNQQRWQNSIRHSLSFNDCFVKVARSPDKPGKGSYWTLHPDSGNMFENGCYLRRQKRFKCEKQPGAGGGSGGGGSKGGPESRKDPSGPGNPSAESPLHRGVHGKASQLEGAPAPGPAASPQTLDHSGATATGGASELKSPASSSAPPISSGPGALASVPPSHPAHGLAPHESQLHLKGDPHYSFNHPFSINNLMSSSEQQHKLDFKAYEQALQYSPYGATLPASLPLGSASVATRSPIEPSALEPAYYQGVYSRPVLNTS
Strand = ATCTTCCCCCTCTTCCTTGCCCCACCAGCTCACCTTCCCGGGTTATTTGCAGATAGGAAAATAAATAAAGCCGGCATTCGTTAACCCTCTTCAGATGAATCATGCCAGAGCAAACAGATCTAACATGGTCCTTTGGCGACGCCAGGCTCCGGGAGAGCAAAGCACCGTGTCAGGGCCATGATCCGGGGTGGCC; result = 0.4 ratio
Strand = CATTAGTTCATGCCAGGCAGGGTTTGACCAAAACCTTGGACTCACTCCTGTCTGCTTTCCTTCAGTGACTAAGAGGATTCCTGAGATGGATGTGCAAACATGAAGTGTTTACTTTCCTCCATGGGAATGTACTTCTGGCTTCCACTCCTCAGCTGCTGCTGCTAAGCCAGTGAGATAGATGGTGGTTTGGAAA; result = 0.402 ratio
Strand = ACTCTGTAATTTTACACACGTGAAATTTCTCTGTTTCAAAAATAATAATACCAAGCATCTATAGGAGAGTAAATTGATACCAACATCAAAATGTAATCTTGGAAGGTAAGAGAATTTTATAAGATCTGCTTTTTACACTTTCTTTTTCATATTCTATAAAAAGAGTACAACATAAGCAAAATGGTTGTCTAAA; result = -0.058 ratio
Strand = TGATGATACGTTATAGCATTTCTCTGCTCTGTAAGAGAGGCACCAGGGTCGTGTGCTGGGTCTCACATCCGGTGGGGTTTGTCCATTCGCTGCTGTTGACTCTGGTGTCGGCCGCTGGTGAGCTGGCTGTAGCTGGTCACCTCTGGGTGGTTTCTGGGGCGGTCGCAGGCTGACTAACACACCAAAGGTCAGC; result = 0.0126 ratio
Strand = CACAGAGTTCAAAGTTGGCTGAGAAAATATACCAGTTGTCCTTGAAACATTCACTGTATTTGATGGCTATCTTTTCTCTAAACATATTGTAATGCAATTTTAAAATTGTTTTGTTTTATAAAACAATAGAATACATCAGCTGAAGTTACCCCCAAAAGAAATGAAAGAAACTTCTGGGTGTGCCCTCAAAATT; result = -0.00691 ratio
Strand = ATCTTCCCCCTCTTCCTTGCCCCACCAGCTCACCTACGGGGGTTATTTGCACAAAGGAAAATAAATAAAGCCGGCATTCGTTAACGCAGTTCTGGCGCAAACTGCTGTTTGCTCTGGATGAATCATGGTCCTTTGGCGAGGCGTGGCTCCGGGAGAGCAAAGCACCGTGTCAGGGCCATGATCCGGGCTCGCC; result = 0.384 ratio
Strand = TGATGAGAAACATGATAATTATTTAGTCTGAAAGGATCTTCTCCAATAATTTTTTTTTGTCGTGATACATTCCTTCTCCACCCCCGACTAAATGCAAACAAACCTAAATTGAGGGAAATTCTATGCAATACCTAACCATTATTCATCAAATGTACACAGGAGTACAGTGACACAATCATGGTTCACTGTAACC; result = 0.322 ratio
Strand = AATAAGGGGGTAGCAGGGCAAAGCCATTTCACAGATCTGTAAACAAACTGCAATGCTGACCTCTGGTTTCCCTAACTAAGAGCTTTCACAAAGTAAACATGTTATTTAAAAATAATATCTCAAATAGCCATGCAGTTATGATGCGCAGTTTAACTGAGGTGGGGGAGATTCTCAGAGGGAAGAACCCAGAGAT; result = 0.476 ratio

Series 2
Target: Sal-like protein 4, full length isoform B (SALL4, Homo sapiens, UniProt Q9UJQ4-2, residues 1-616)
Method: universal PBM
Form: double-stranded DNA, one strand shown
Medium: in vitro
Concentration: not given
Notes: 8-mer, flanks averaged, mean of replicates
Direction: higher = stronger binding
Endpoint: E-score
Strand = GCTTGGCC; result = -0.199
Strand = GCCCGTCC; result = -0.372
Strand = CCAGCAAG; result = -0.0975
Strand = GGTTCCGA; result = -0.267
Strand = ACGGAGGC; result = -0.351
Strand = ATAATGCA; result = 0.317
Strand = CTAATGTA; result = 0.211
Strand = ATACCTTA; result = 0.257
Strand = CCCAATTC; result = 0.068
Strand = GACAACTC; result = -0.0685
Strand = CATCATTA; result = 0.282
Strand = GACACGGC; result = -0.181
Strand = CAGTGCGA; result = -0.106
Strand = ACCTCAGG; result = -0.357
Strand = GGCAGGTA; result = -0.172
Strand = AGATCTGG; result = -0.191
Strand = AATCCGAG; result = 0.0419
Strand = ACCTGCTC; result = -0.147
Strand = TGAATTCA; result = 0.221
Strand = CGTGTCGC; result = -0.103
Strand = CAATGGTG; result = -0.134
Strand = GCAACAGA; result = -0.0477

Series 3
Target: Interferon regulatory factor 5, full length, phosphomimetic (IRF5, Homo sapiens, UniProt Q13568-2, residues 1-514, S451D/S453D/S456D/S462D)
Method: protein-binding microarray
Form: double-stranded DNA, one strand shown
Medium: in vitro
Concentration: 940 nM top
Notes: 60-bp whole probe
With: salmon DNA 0.4 mg/ml
Reference: random background probes
Direction: higher = stronger binding
Endpoint: fitted relative affinity
Shared flanks, not repeated: GCCTAGCAC … GTCTTGATTCGCTTGACGCTGCTG
Strand = GACGATTCAAGTTTCGAGACGTGCTAG; result = 3.13 z-score
Strand = TTACATTTCAGTCTCGATTAGTGCTAG; result = 4.92 z-score
Strand = TTAGGTTTCGGTTCCGATTAGTGCTAG; result = 15 z-score
Strand = TCCCCTCCGGGACCCGCCTCGTGCTAG; result = -0.47 z-score
Strand = TTAGGTTTGGGTTCCGGTTAGTGCTAG; result = 0.97 z-score
Strand = GACGGAATCCTTATCCTGACGTGCTAG; result = 0.0594 z-score
Strand = AGCTCCCTTTCTCTCTGTGAGTGCTAG; result = 1.33 z-score
Strand = GACGGTATCGGGGCTGGGGACGTGCTA; result = 3.4 z-score
Strand = TTTGCTTTCCTTTGCTTTCTGTGCTAG; result = 0.958 z-score
Strand = TTGTTTTTCATTATTGTCTTGTGCTAG; result = 1.92 z-score
Strand = GACGGACTGCTATTGCTGACGTGCTAG; result = -0.598 z-score
Strand = TTAGGTTCCCTTTTCCCTTAGTGCTAG; result = 0.915 z-score
Strand = GACGGTATCGGGTTTCGGGCCGTGCTA; result = 5.16 z-score
Strand = TTCAGTTTTCCTCTGTCATTGTGCTAG; result = 1.5 z-score
Strand = AACGATTTCGGGTATCGAGACGTGCTA; result = 1.95 z-score
Strand = GACGATCTCAGGCTCGAGACGTGCTAG; result = -0.221 z-score
Strand = CGGAATTTCCCTCTGCTCCTGTGCTAG; result = 0.327 z-score
Strand = GACGGTTCCGGTGTCGGGACGTGCTAG; result = 1.67 z-score
Strand = ACACTCTTCTTTTGCTAATTGTGCTAG; result = 1.67 z-score
Strand = TTAGATATCTGTTTCGATTAGTGCTAG; result = 3.43 z-score

Series 4
Target: RNA binding protein fox-1 homolog 2, RRM domain, GST-SBP tag (RBFOX2, Homo sapiens, UniProt O43251-10, residues 100-194)
Method: RNA Bind-n-Seq
Form: RNA
Medium: in vitro
Concentration: 365 nM
Notes: natural RNA segment, single round, ends assumed
Reference: no-protein control
Direction: higher = stronger binding
Endpoint: RBNS enrichment (R)
Shared flanks, not repeated: GGGAGUUCUACAGUCCGACGAUC … UGGAAUUCUCGGGUGCCAA
Construct (chain): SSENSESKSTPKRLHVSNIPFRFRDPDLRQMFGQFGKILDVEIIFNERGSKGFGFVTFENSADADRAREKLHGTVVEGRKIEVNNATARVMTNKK
Strand = GGUUAUUUUUGUAUGAUCUAGUAACUUGCAAACAGACCAAAUGGAUGAGAGGCGGGGACCGUGCAGCUGUCGGCUGAUGAGGAGGCGGCCGCCCCAGUGCUGAUGGAGAU; result = 1.44
Strand = UUCUGCUGGCUUCUCCGGCUUUCAGAGCCCUGAAACAAAGAGAAACAGGAUCUGUCCCUACCCAGCACAGCAAAUGGUUGUAGUAAUUGCCAAAGCCCUCAUAAAGCCCU; result = 0.226
Strand = GUGUCUUCUUGCCUUGAGGAACCUUAAUGGCAUUGUGGCCACCACAUGUGACUCUUCUCCGUGACUCUAUAAAGACCUAGCAGAGCAUGUGAGCAUUCUCAAACAAGAGA; result = 0.252
Strand = GCCUUCAAGAGUCUUCUUAAUGUUCUCCCACAGGGCUCUUUCUGAGUGCCCUAUAAUCCCUCCCCCCUUUCUAAUUCAAUAUCUGGAGUAAGGAAUUCUUGGGUAGGGCA; result = 0.374
Strand = UCCCAGCGCUGAGAGCCUCCCCUGGCUGUCAGCAGCACUGUGUCCAGGCUCUUGUCUGAACACCGCAGCCCCUCCUUCGCUCCUUCCAGAGCUCAGCAUGUCACGGCAAG; result = 1.72
Strand = GACAUUAAGAAGUGGAUGGAUGUUGUUCCUUUUUUGAAGUUGUCAUUAAAGUAGGUGCAACAACCAAGAAAGUGUCUCUUCCCUCUUUGAAAGCCUGCCCCAUCUCUGCC; result = 1.02
Strand = UUAUUAAAACAAAAGGGUGUAUAGUGUUCACAAACUGUGAAAAUAGUGUAAGAACUGUACAUUGUGAGCUCUGGUUAUUUUUCUCUUGUACCAUAGAAAAAUGUAUAAAA; result = 0.391
Strand = CCCUCUCUACCUUUUUUUAAAAGAAGAGAAUAUUUCUUAGAACUUUAUAUUAAAAAUAAACAGCUACAAGAAAGUCUUUUUCCAAUUGAGCAGUAACUGAAGAAAGUGUG; result = 0.519
Strand = GCUGCAUUAUUCCAGUCAGGACUGUGAUAACUUGCUGCCAGCCCCACUCAACUUUCAGUUGGCUCUGUGUCAGUUUUCCAUUCAGUGUUAACUACUUGUUACUGCCAUGC; result = 1.02
Strand = CUCCCCUGCCCCUCCCCGCUUCCUGACCUCUGAAGAGGUUGGGAAGUGACCAUUUGGAUGUCUGGGCCCUGCCAAGGCGACAGGGAGGGUCAGAGGGAGGCCGGCUGCUU; result = 0.256
Strand = UCGCUGUGGGGGUUUUUUUCUCUGGGGUUCCCCUGGAAAGGCUGCAGGAACUAGGCACAAGCUCUCUGAGCCAGUCCCUCAGCCACUGAAGUCCCCCUUUCUCCUUUUUU; result = 0.239
Strand = UUUUUUUCUUUUGGUAUUUGCAUAAAAUGAAAAUAUCACCGAAUAUUAAAUCACUGUGGAUCCAUUAUCUACUUUUCAUAUUUGUCCAUUCCAUUUUUGUGCCAUUUCUG; result = 0.627

For quick reference, copied from above (series 4):
Strand = UCCCAGCGCUGAGAGCCUCCCCUGGCUGUCAGCAGCACUGUGUCCAGGCUCUUGUCUGAACACCGCAGCCCCUCCUUCGCUCCUUCCAGAGCUCAGCAUGUCACGGCAAG; result = 1.72
Strand = CUCCCCUGCCCCUCCCCGCUUCCUGACCUCUGAAGAGGUUGGGAAGUGACCAUUUGGAUGUCUGGGCCCUGCCAAGGCGACAGGGAGGGUCAGAGGGAGGCCGGCUGCUU; result = 0.256
Strand = CCCUCUCUACCUUUUUUUAAAAGAAGAGAAUAUUUCUUAGAACUUUAUAUUAAAAAUAAACAGCUACAAGAAAGUCUUUUUCCAAUUGAGCAGUAACUGAAGAAAGUGUG; result = 0.519
Strand = UUAUUAAAACAAAAGGGUGUAUAGUGUUCACAAACUGUGAAAAUAGUGUAAGAACUGUACAUUGUGAGCUCUGGUUAUUUUUCUCUUGUACCAUAGAAAAAUGUAUAAAA; result = 0.391
Strand = UUCUGCUGGCUUCUCCGGCUUUCAGAGCCCUGAAACAAAGAGAAACAGGAUCUGUCCCUACCCAGCACAGCAAAUGGUUGUAGUAAUUGCCAAAGCCCUCAUAAAGCCCU; result = 0.226
Strand = UCGCUGUGGGGGUUUUUUUCUCUGGGGUUCCCCUGGAAAGGCUGCAGGAACUAGGCACAAGCUCUCUGAGCCAGUCCCUCAGCCACUGAAGUCCCCCUUUCUCCUUUUUU; result = 0.239
